# Measured values gathered from unrelated publications.
# A part holds a random share of what one study measured. Substitutions count along the parent as printed.
# Sequence of UniProt P42680 (whole entry, looked up): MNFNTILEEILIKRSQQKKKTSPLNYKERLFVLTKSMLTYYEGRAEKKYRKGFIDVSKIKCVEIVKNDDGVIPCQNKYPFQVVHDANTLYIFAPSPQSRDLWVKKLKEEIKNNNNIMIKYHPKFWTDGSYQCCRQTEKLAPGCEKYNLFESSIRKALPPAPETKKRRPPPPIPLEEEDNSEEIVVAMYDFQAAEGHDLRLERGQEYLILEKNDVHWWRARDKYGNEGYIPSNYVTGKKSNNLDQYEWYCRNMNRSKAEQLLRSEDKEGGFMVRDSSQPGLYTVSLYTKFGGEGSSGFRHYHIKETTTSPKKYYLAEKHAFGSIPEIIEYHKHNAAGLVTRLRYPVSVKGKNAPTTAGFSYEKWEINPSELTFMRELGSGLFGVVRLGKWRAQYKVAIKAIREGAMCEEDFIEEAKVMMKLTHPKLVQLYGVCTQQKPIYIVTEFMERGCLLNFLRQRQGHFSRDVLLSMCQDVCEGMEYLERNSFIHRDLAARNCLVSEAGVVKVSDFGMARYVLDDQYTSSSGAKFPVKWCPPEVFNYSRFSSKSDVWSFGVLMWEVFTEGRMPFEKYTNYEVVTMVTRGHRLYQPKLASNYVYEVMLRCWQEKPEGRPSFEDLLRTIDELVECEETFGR
# Sequence of UniProt P07949 (whole entry, unmodified, looked up): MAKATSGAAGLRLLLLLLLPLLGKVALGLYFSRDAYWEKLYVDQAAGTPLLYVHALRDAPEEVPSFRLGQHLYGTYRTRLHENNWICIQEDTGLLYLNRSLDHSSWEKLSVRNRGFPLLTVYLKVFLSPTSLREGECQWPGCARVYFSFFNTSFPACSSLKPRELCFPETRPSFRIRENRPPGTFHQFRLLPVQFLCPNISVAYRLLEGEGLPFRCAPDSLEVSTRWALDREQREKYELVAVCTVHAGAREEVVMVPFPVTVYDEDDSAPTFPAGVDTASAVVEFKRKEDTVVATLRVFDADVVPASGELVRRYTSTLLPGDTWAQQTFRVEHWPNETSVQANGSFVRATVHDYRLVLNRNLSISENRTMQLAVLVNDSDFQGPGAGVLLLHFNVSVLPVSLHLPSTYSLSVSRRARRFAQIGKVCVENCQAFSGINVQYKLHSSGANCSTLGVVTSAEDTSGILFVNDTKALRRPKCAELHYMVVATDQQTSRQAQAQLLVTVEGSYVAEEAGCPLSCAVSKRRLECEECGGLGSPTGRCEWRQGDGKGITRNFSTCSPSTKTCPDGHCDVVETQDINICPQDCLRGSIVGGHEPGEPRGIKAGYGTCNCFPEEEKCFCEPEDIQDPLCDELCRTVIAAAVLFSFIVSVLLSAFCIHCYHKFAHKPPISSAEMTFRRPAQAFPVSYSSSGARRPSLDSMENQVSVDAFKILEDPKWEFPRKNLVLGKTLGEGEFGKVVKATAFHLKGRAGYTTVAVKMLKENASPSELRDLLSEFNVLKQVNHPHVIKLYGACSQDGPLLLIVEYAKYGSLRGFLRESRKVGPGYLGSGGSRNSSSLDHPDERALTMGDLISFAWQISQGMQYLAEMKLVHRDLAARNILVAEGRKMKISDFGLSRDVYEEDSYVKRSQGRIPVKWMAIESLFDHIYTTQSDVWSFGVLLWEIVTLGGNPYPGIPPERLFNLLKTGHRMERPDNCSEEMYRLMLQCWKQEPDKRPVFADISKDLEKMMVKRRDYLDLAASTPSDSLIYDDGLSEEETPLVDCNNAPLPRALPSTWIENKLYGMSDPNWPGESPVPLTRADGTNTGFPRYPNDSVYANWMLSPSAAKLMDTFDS
# Sequence of UniProt O60674 (whole entry, looked up): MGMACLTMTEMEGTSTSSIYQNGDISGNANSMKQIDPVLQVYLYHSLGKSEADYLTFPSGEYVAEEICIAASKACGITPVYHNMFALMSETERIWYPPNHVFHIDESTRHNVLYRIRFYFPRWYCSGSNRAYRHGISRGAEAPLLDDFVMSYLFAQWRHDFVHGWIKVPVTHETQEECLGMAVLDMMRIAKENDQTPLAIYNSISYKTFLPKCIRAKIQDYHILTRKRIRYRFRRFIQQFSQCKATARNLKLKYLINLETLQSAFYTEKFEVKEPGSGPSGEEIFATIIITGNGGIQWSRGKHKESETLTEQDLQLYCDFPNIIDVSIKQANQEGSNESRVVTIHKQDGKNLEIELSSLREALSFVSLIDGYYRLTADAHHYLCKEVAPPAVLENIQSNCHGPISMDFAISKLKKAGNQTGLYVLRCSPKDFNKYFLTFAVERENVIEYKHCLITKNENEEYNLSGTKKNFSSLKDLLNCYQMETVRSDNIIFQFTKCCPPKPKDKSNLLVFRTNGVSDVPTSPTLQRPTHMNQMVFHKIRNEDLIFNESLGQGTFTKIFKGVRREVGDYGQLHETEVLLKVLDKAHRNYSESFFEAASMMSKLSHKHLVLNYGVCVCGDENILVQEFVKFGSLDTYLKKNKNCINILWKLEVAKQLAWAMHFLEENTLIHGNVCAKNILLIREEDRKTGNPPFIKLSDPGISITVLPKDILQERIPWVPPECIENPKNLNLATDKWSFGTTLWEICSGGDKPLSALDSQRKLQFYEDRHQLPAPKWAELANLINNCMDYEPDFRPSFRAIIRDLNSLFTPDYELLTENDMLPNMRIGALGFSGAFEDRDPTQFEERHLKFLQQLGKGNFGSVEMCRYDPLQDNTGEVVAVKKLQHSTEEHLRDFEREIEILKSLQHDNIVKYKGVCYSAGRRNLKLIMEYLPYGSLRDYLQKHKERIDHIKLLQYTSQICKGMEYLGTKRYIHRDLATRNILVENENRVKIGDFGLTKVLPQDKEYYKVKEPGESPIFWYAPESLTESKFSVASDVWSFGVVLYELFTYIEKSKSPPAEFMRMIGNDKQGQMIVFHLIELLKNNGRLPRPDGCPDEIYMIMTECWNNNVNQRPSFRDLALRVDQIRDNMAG
# Sequence of UniProt Q14680 (whole entry, looked up): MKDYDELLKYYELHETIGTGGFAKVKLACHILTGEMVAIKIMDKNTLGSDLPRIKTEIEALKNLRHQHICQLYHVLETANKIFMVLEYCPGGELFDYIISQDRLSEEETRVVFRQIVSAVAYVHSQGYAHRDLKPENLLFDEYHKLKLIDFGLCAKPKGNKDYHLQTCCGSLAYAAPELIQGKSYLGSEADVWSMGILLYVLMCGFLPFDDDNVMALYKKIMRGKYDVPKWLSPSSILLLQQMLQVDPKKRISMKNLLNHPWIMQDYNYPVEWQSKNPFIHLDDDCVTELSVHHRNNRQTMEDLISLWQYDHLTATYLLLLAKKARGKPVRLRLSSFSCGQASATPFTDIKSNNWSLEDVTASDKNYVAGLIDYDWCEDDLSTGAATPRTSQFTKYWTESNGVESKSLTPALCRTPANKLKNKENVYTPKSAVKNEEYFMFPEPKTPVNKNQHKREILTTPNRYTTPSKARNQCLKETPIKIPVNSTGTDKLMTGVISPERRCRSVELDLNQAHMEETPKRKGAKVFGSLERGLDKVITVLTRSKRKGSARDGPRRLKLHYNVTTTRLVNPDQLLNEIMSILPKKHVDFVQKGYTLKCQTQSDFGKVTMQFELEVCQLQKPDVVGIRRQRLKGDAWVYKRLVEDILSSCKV
# Sequence of UniProt P07332 (whole entry, looked up): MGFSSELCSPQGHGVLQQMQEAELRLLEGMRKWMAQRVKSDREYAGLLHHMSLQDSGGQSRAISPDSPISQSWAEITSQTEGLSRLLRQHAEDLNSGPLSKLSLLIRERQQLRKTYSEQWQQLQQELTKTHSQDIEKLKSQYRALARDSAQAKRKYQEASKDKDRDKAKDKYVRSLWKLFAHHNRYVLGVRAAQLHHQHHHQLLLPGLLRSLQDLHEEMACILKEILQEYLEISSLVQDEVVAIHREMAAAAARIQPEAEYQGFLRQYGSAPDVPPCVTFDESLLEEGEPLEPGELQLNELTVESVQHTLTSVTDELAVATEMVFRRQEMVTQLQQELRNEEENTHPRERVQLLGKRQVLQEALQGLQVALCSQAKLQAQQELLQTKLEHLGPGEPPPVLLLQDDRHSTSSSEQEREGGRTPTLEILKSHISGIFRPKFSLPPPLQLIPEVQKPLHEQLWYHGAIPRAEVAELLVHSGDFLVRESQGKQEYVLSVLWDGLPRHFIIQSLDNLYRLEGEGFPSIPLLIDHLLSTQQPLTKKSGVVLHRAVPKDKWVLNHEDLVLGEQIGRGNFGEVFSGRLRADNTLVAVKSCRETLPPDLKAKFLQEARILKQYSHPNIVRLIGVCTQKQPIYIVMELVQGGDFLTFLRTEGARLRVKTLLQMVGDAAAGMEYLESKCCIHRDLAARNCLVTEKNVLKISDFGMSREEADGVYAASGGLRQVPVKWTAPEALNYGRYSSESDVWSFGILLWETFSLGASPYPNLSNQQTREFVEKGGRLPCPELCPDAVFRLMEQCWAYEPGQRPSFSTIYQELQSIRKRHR
# Sequence of UniProt P19525 (whole entry, looked up): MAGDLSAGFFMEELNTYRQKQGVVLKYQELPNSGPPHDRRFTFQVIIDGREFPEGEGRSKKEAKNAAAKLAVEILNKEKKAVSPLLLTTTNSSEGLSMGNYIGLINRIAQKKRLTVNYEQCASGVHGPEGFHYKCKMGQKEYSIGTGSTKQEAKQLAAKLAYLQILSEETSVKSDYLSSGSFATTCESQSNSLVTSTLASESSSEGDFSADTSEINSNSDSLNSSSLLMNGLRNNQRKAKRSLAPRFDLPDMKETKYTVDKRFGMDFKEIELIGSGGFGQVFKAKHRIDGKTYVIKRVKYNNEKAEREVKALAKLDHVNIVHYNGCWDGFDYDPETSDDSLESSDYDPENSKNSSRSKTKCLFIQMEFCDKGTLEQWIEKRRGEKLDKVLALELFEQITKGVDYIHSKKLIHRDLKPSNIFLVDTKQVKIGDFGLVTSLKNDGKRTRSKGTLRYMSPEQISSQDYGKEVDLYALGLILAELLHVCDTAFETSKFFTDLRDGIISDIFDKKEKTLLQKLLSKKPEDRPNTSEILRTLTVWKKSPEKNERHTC

# Set 1
# Target: ABI1, truncated, D143A, DHFR fusion (Arabidopsis thaliana, UniProt P49597)
# Method: DHFR PCA, dose-response
# Sample: yeast
# Setting: Hill fit, mean, not affinity
# With: (+)-ABA, dose series
# Reading: lower = more sensitive
# Starting sequence: PYL1, truncated, DHFR fusion (Arabidopsis thaliana, UniProt Q8VZS8); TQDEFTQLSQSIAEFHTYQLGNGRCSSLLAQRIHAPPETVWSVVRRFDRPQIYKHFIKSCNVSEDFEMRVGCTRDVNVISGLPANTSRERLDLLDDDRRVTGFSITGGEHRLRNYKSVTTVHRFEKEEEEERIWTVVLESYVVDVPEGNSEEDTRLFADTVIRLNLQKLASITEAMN
Substitution,ABA EC50 [µM]
D92N,29
R98E,22.3
T1C,1.44
K116F,240
P83A,17.4
I79D,131
T86F,0.874
L94F,2.32

# Set 2
# SMILES: CS(=O)(=O)CCNCc1ccc(-c2ccc3ncnc(Nc4ccc(OCc5cccc(F)c5)c(Cl)c4)c3c2)o1
# Observed: enzyme activity
# Action: inhibitor
# Concentration: 0.5 µM
# Reference: control
target,remaining activity [%]
"CAMK1 (Homo sapiens, UniProt Q14012)",102
"EPHA6 (Homo sapiens, UniProt Q9UF33)",115
"PAK1 (Homo sapiens, UniProt Q13153)",110
"TEC (Homo sapiens, UniProt P42680)",101
"ACVRL1 (Homo sapiens, UniProt P37023)",105
"MAP3K20 (Homo sapiens, UniProt Q9NYL2)",96.7
"JAK2 (Homo sapiens, UniProt O60674)",101
"FES (Homo sapiens, UniProt P07332)",104
"FLT1 (Homo sapiens, UniProt P17948)",100
"PIM1 (Homo sapiens, UniProt P11309)",99
"JAK1 (Homo sapiens, UniProt P23458)",98
"MELK (Homo sapiens, UniProt Q14680)",88.5
"ERBB2 (Homo sapiens, UniProt P04626)",9.57
"TYRO3 (Homo sapiens, UniProt Q06418)",98.9

# Set 3
# SMILES: O=C1NC(c2ccccn2)Sc2ccccc21 (stereo not shown)
# Observed: cell-free assay
# Method: competition with immobilised ligand
# Concentration: 1 µM
target,remaining binding [%]
"EIF2AK2 (Homo sapiens, UniProt P19525)",91
"CLK2 (Homo sapiens, UniProt P49760)",95
"LTK (Homo sapiens, UniProt P29376)",89
"Cyclin-dependent kinase 4, with cyclin D3 (CDK4, Homo sapiens, UniProt P11802)",81
"CDK14 (Homo sapiens, UniProt O94921)",100
"RET (Homo sapiens, UniProt P07949, M918T)",64
"TEC (Homo sapiens, UniProt P42680)",75
"CAMK4 (Homo sapiens, UniProt Q16566)",72

# Mixed results
Compound,test system,quantity,value
CCOC(=O)[C@@H]1CSCC(=O)N[C@H](CC)C(=O)N(C)[C@@H](C)C(=O)N[C@H](CC(C)C)C(=O)N2CCC[C@@H]2C(=O)N(CC(C)C)CC(=O)N[C@H](CC(C)C)C(=O)N(C)[C@@H](C)C(=O)N[C@@H](CC(C)C)C(=O)N1C,hydrocarbon/water,logD,1.65

# Excerpt of the above (mixed results):
Compound,test system,quantity,value
CCOC(=O)[C@@H]1CSCC(=O)N[C@H](CC)C(=O)N(C)[C@@H](C)C(=O)N[C@H](CC(C)C)C(=O)N2CCC[C@@H]2C(=O)N(CC(C)C)CC(=O)N[C@H](CC(C)C)C(=O)N(C)[C@@H](C)C(=O)N[C@@H](CC(C)C)C(=O)N1C,hydrocarbon/water,logD,1.65
